{"data": "Results of several laboratories", "note": "Lines come from different studies, so protocols differ. Values joined by “and” are separate records of one study, mostly repeats; a detail may differ. Numbers after ± are the reported error."}
{"Structure (SMILES)": "CNC(=O)c1cccc(-c2ccc(O[C@H]3O[C@H](CO)[C@@H](O)[C@H](O)[C@@H]3O)c(C)c2)c1", "system": "Sprague-Dawley rat, male, plasma", "conditions": "intravenous, 3 mg/kg", "endpoint": "Vss", "result": "0.965 L/kg and 1.85 L/kg and 1.16 L/kg"}
{"Structure (SMILES)": "O=C(N[C@H](Cc1c[nH]c2ccccc12)C(=O)Nc1ccncc1)c1ccc(-c2ccc(F)c(Cl)c2)cc1F", "system": "Swiss Webster mouse, female, muscle", "conditions": "oral, 50 mg/kg, 8 h, 20% Kolliphor vehicle", "endpoint": "concentration", "result": "4.44 µM"}
{"Structure (SMILES)": "CO[C@H]1C[C@@H]2CC[C@@H](C)[C@@](O)(O2)C(=O)C(=O)N2CCCC[C@H]2C(=O)O[C@H]([C@H](C)C[C@@H]2CC[C@@H](OC(=O)NCCOCCOCCOCCOCCOCCOCCOCCOCCC(=O)N3CCc4cc(Cn5nc(-c6ccc7oc(N)nc7c6)c6c(N)ncnc65)ccc4C3)[C@H](OC)C2)C[C@@H](O)[C@H](C)/C=C(\\C)[C@@H](O)[C@@H](OC)C(=O)[C@H](C)C[C@H](C)/C=C/C=C/C=C/1C", "system": "human patients, plasma", "conditions": "intravenous, 16 mg, cycle 1 day 15, weekly dosing", "endpoint": "AUClast", "result": "1820 ng·h/mL"}
{"Structure (SMILES)": "COc1ccc2c(c1)CN(C(=O)CCN1CCC(Cc3ccccc3)CC1)CC[S@@+]2[O-]", "assay": "telemetry", "system": "conscious male beagle dogs", "conditions": "intravenous, 2 mg/kg, 1 h", "endpoint": "systolic blood pressure", "result": "132 ± 11 mmHg"}
{"Structure (SMILES)": "CCOc1c([C@H](C)n2nc(C)c3c(N)ncnc32)cc(Cl)c(F)c1[C@@H]1CNC(=O)C1", "assay": "measured: QTcF change above 60 ms", "system": "previously treated B-cell malignancy", "conditions": "oral, 45 mg once daily, overall population", "scale": "baseline: baseline", "endpoint": "ECG observations", "result": "0%"}
{"Structure (SMILES)": "CCCC[C@H](NC(=O)[C@@H](NC(=O)[C@H](CCC(=O)O)NC(=O)CNC(=O)[C@@H](NC(=O)[C@H](Cc1ccccc1)NC(=O)[C@H](C)NC(=O)[C@H](CCCCN)NC(=O)CNC(=O)[C@H](Cc1ccccc1)NC(=O)[C@H](CCCCN)NC(=O)[C@H](CCCCN)NC(=O)[C@H](C)NC(=O)[C@]1(C)CCCC=CCCC[C@](C)(NC(=O)CNC(=O)[C@@H](NC(=O)CN)[C@@H](C)CC)C(=O)N[C@@H](Cc2ccccc2)C(=O)N[C@@H](CC(C)C)C(=O)N[C@@H](Cc2c[nH]cn2)C(=O)N1)C(C)C)[C@@H](C)CC)C(=O)N[C@@H](CC(N)=O)C(=O)N[C@@H](CO)C(N)=O", "assay": "HPLC C18 column", "endpoint": "retention time", "result": "14.2 min"}
{"Structure (SMILES)": "C[C@@H](Nc1cc(F)cc(F)c1)c1cc(C(=O)N(C)C)cc2c(=O)cc(N3CCOCC3)oc12", "assay": "CTCAE v4, measured: macular rash", "system": "patients with advanced solid tumours", "conditions": "oral, dose not given, phase I dose finding", "endpoint": "patients with related SAE", "result": "1.6%"}
{"Structure (SMILES)": "C=CC[C@@H]1/C=C(\\C)C[C@H](C)C[C@H](OC)[C@H]2O[C@@](O)(C(=O)C(=O)N3CCCC[C@H]3C(=O)O[C@H](/C(C)=C/[C@@H]3CC[C@@H](O)[C@H](OC)C3)[C@H](C)[C@@H](O)CC1=O)[C@H](C)C[C@@H]2OC", "system": "Wistar Kyoto rats, male", "conditions": "ip, 0.5 mg/kg/day, day 18", "scale": "baseline: vehicle", "endpoint": "fractional magnesium excretion", "result": "~1.5 fold"}
{"Structure (SMILES)": "COc1ccnc(C(=O)N[C@H]2COC(=O)[C@H](Cc3ccccc3)[C@@H](O)[C@H](C)OC2=O)c1O", "system": "laying hens, female, fat", "conditions": "oral, 10.7 mg/kg dry feed, 7 days", "endpoint": "share of total radioactive residue", "result": "≤ 17 % TRR"}
{"Structure (SMILES)": "O=C(Nc1nc2cccc(-c3ccc(CN4CCS(=O)(=O)CC4)cc3)n2n1)C1CC1", "assay": "measured: epigastric discomfort", "system": "human rheumatoid arthritis patients", "conditions": "oral, 30 mg once daily, 4 weeks, regardless of relatedness", "endpoint": "treatment-emergent adverse events", "result": "0%"}
{"Structure (SMILES)": "C=CC(=O)Nc1cc(Nc2nccc(-c3cn(C)c4ccccc34)n2)c(OC)cc1N(C)CCN(C)C", "assay": "storage stability", "system": "human plasma", "conditions": "30 d, -80 °C, LQC level", "endpoint": "recovery", "result": "95.6%"}
{"Structure (SMILES)": "CNCc1ccc(-c2[nH]c3cc(F)cc4c3c2CCNC4=O)cc1", "system": "human patients", "conditions": "oral, 600 mg twice daily, grade 1", "endpoint": "neutropenia incidence", "result": "0%"}
{"Structure (SMILES)": "COc1c(O)c(C)cc2c1C(=O)c1c(ccc(O)c1O)C2=O", "tested on": "HK-2 co-cultured with HepaRG", "assay": "MTT", "conditions": "33.33 µM, 24 h", "scale": "baseline: untreated control", "endpoint": "viability", "result": "83.9 ± 8.27%"}
{"Structure (SMILES)": "COc1ncc(-c2nc3c(n2C(C)C)[C@H](c2ccc(Cl)cc2)N(c2cc(Cl)cn(C)c2=O)C3=O)c(OC)n1", "system": "human patients, plasma", "conditions": "oral, 45 mg, 0-24 h, low-dose arm, cycle 2 day 1", "endpoint": "AUC(0-t) geometric mean", "result": "4720 ng·h/mL"}
{"Structure (SMILES)": "O=C(O)c1cc(O)c2c(c1)C(=O)c1cccc(O)c1C2=O", "tested on": "HK-2 co-cultured with HepaRG", "assay": "MTT", "conditions": "33.33 µM, 24 h", "scale": "baseline: untreated control", "endpoint": "viability", "result": "102 ± 13.8%"}
{"Structure (SMILES)": "C[C@@H]1CN(CC(=O)N2CC(C)(C)c3nc(CO)c(Cc4ccc(F)cc4)cc32)[C@@H](CN2CCOC[C@H]2C)CN1", "system": "cynomolgus monkey, male", "conditions": "oral, 5 mg/kg", "endpoint": "AUC(0-last)", "result": "525 ± 187 ng·h/mL"}
{"note": "Repeated from above:"}
{"Structure (SMILES)": "O=C(O)c1cc(O)c2c(c1)C(=O)c1cccc(O)c1C2=O", "tested on": "HK-2 co-cultured with HepaRG", "assay": "MTT", "conditions": "33.33 µM, 24 h", "scale": "baseline: untreated control", "endpoint": "viability", "result": "102 ± 13.8%"}
{"Structure (SMILES)": "CCOc1c([C@H](C)n2nc(C)c3c(N)ncnc32)cc(Cl)c(F)c1[C@@H]1CNC(=O)C1", "assay": "measured: QTcF change above 60 ms", "system": "previously treated B-cell malignancy", "conditions": "oral, 45 mg once daily, overall population", "scale": "baseline: baseline", "endpoint": "ECG observations", "result": "0%"}
{"Structure (SMILES)": "C[C@@H](Nc1cc(F)cc(F)c1)c1cc(C(=O)N(C)C)cc2c(=O)cc(N3CCOCC3)oc12", "assay": "CTCAE v4, measured: macular rash", "system": "patients with advanced solid tumours", "conditions": "oral, dose not given, phase I dose finding", "endpoint": "patients with related SAE", "result": "1.6%"}
